Measurements of several laboratories.
Parts stem from different laboratories: compare values within a part only.

Study 1
Target: Protein max, full length (MAX, Homo sapiens, UniProt P61244-2, residues 1-151)
Method: protein-binding microarray
Form: double-stranded DNA, one strand shown
Sample: in vitro
Concentration: not given
Notes: k-mer, scored over probes, only values ≥0.25
Reading: higher = stronger binding
`ACACGCTC` gave an E-score of 0.36.
`CACGCTTC` has an E-score of 0.431.
For `CATGCGGC`, the E-score was 0.435.
For `CATGGTCC`, the E-score was 0.337.
The E-score of `CCCACACG` is reported as 0.35.
For `ACATGCTG`, the E-score was 0.46.
With `CGCCCCAC` the E-score was 0.331.
For `CACCGTGC`, the E-score was 0.318.

Study 2
Target: Interferon regulatory factor 7, full length, phosphomimetic (IRF7, Homo sapiens, UniProt Q92985, residues 1-503, S471D/S472D/S475D/S476D/S477D/S483D/S484D/S487D)
Sequence of UniProt Q92985 (whole entry, unmodified, looked up): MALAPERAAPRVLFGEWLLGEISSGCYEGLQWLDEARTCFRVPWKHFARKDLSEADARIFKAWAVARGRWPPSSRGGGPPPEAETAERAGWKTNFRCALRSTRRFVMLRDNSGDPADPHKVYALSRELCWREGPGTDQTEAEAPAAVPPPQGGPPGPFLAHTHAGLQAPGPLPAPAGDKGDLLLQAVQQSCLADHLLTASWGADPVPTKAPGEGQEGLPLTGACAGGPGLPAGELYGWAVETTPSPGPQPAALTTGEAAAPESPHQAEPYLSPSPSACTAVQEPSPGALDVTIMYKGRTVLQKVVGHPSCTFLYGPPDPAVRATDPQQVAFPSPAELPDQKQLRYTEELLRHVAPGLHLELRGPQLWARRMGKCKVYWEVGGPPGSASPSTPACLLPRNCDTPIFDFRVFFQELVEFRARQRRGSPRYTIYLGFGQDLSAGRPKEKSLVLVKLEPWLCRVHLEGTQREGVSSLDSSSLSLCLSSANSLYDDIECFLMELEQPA
Method: protein-binding microarray
Form: double-stranded DNA, one strand shown
Sample: in vitro
Concentration: 2200 nM top
Notes: 60-bp whole probe
Together with: salmon DNA 0.4 mg/ml
Relative to: random background probes
Reading: higher = stronger binding
All sequences stand within: GCCTAGCAC … GTCTTGATTCGCTTGACGCTGCTG
For `TTAGATCTCAGTCTCGTTTAGTGCTAG`, “fitted relative affinity” read 0.97 z-score.
`TTCTCTAACCTCTCTAATAAAGTGCTA` — result for “fitted relative affinity”: 0.767 z-score.
`GACGGTTTCCTTTCCCGGACGTGCTAG` — result for “fitted relative affinity”: 4.55 z-score.
`TGTGCTTTCCTGATGGTTTTGTGCTAG`: “fitted relative affinity” 2.42 z-score.
For `TTAGATTTCGGGTATCGATTGGTGCTA`, “fitted relative affinity” read 3.12 z-score.
Under “fitted relative affinity”, `TTAGATATCGGGACTGGAATAGTGCTA` is recorded as -0.388 z-score.
Under “fitted relative affinity”, `TTAGATTTCGTGTATCGATTAGTGCTA` is recorded as 1.85 z-score.
For `TTAGGATTCGGTATCGGTTAGTGCTAG`, “fitted relative affinity” read 1.79 z-score.

Study 3
Target: Replicase polyprotein 1ab, polymerase (rep, Severe acute respiratory syndrome coronavirus 2, UniProt P0DTD1)
Read-out: enzyme activity
Mode: inhibitor
Concentration: 20 µM
`Cn1nnnc1SCC1=C(C(=O)O)N2C(=O)[C@@H](NC(=O)[C@H](O)c3ccccc3)[C@H]2SC1` has an inhibition of 0.9%.
`CC(C)(C)NCC(O)c1cc(Cl)c(N)c(C(F)(F)F)c1` (stereo not shown) has an inhibition of 1.92%.
With `NC(=O)[C@@H](CC1CC1)[C@@H](CCC(F)(F)F)C(=O)N[C@H]1N=C(c2ccccc2)c2cccc(F)c2NC1=O` the inhibition was 0.68%.
With `O=C(OCCN1CCCCC1)c1c[nH]c2ccccc12` the inhibition was 0.64%.
The inhibition of `CC(C)Nc1cccnc1N1CCN(C(=O)c2cc3cc(NS(C)(=O)=O)ccc3[nH]2)CC1` is reported as 4.74%.
`CN1C(=O)C[C@@H](C(=O)N[C@@H](Cc2c[nH]cn2)C(=O)N2CCC[C@H]2C(N)=O)NC1=O` gave an inhibition of -2.4%.
With `C[C@@H](Nc1cc(F)cc(F)c1)c1cc(C(=O)N(C)C)cc2c(=O)cc(N3CCOCC3)oc12` the inhibition was -0.16%.
With `Cc1oc(-c2ccccc2)nc1CCC(=O)c1ccc(CC2SC(=O)NC2=O)cc1` (stereo not shown) the inhibition was 5.37%.
For `Cc1cccc(NC(=O)CN2CCC(c3ccccn3)CC2)c1`, the inhibition was -0.17%.
The inhibition of `O=C(O)CCCO` is reported as 5.04%.
`Cn1nnc2c(C(N)=O)ncn2c1=O` gave an inhibition of 3.79%.
`N=C(N)NN=C1C=CC(=NNC(N)=S)C=C1` gave an inhibition of 3.54%.
For `CN(C)N=Nc1ccc(C(=O)O)cc1`, the inhibition was 0.78%.
`Nc1ncnc2c1ncn2[C@H]1CC[C@@H](CO)O1` gave an inhibition of -0.27%.
`O=C(Nc1ccc([N+](=O)[O-])cc1O)Nc1ccccc1Br` has an inhibition of -10.7%.
`C[C@@H]1C[C@H]2[C@@H]3C[C@H](F)C4=CC(=O)C=C[C@]4(C)[C@@]3(F)[C@@H](O)C[C@]2(C)[C@@]1(O)C(=O)CO` has an inhibition of -2.25%.
For `O=C(Nc1cc(C(F)(F)F)ccc1N1CCCCC1)c1ccncc1`, the inhibition was -0.1%.
`Cc1cc(SCc2sc(-c3ccc(C(F)(F)F)cc3)nc2C)ccc1OCC(=O)O` has an inhibition of 0.93%.
With `C[C@]12CC[C@@H](O)C[C@@H]1CC[C@@H]1[C@@H]2CC[C@]2(C)C(=O)CC[C@@H]12` the inhibition was 5.43%.
`O=C1[C@H]2CCCC[C@H]2C(=O)N1CCCCN1CCN(c2nsc3ccccc23)CC1` gave an inhibition of 4.7%.
For `O=C1NC(=O)c2cc(Nc3ccccc3)c(Nc3ccccc3)cc21`, the inhibition was -15.2%.
With `COc1cccc2c1C(=O)c1c(O)c3c(c(O)c1C2=O)C[C@@](O)(C(=O)CO)C[C@@H]3O[C@H]1C[C@H](N2CCO[C@H](OC)C2)[C@H](O)[C@H](C)O1` the inhibition was 50.7%.
The inhibition of `CON(C)C(=O)[C@H](O)[C@H](Cc1ccccc1)NC(=O)c1cc2cc(Cl)ccc2[nH]1` is reported as -1.01%.
For `CC(=O)c1ccc(S(=O)(=O)NC(=O)NC2CCCCC2)cc1`, the inhibition was -7.43%.
The inhibition of `COC(=O)c1cccnc1` is reported as -1.44%.

Study 4
Cell line: HEK-293T
Organism: VSV pseudotyped with SARS-CoV-2 spike
Concentration: 10 µM
Time: 16 h
The pseudovirus infection of `CC1=C(C(=O)O)N2C(=O)[C@@H](NC(=O)[C@H](N)c3ccccc3)[C@H]2SC1` is reported as 87.4%.
With `OC(Cn1cncn1)(Cn1cncn1)c1ccc(F)cc1F` the pseudovirus infection was 109%.
`CCN[C@H]1C[C@H](C)S(=O)(=O)c2sc(S(N)(=O)=O)cc21` gave a pseudovirus infection of 81.2%.

Study 5
Target: Replicase polyprotein 1ab, main protease (rep, Severe acute respiratory syndrome coronavirus 2, UniProt P0DTD1)
Read-out: enzyme activity
Mode: inhibitor
Concentration: 20 µM
Notes: hit confirmation
With `CS/C(N)=C(C#N)/C(C#N)=C(\N)SC` the inhibition was 88.8%.
The inhibition of `Cc1ccccc1N(C)C(=O)c1ccc([S+]([O-])c2nccs2)c([N+](=O)[O-])c1` (stereo not shown) is reported as 100%.
For `COc1ccc2[nH]c([S+]([O-])Cc3ncc(C)c(OC)c3C)nc2n1` (stereo not shown), the inhibition was 90.2%.

Study 6
Target: Ras GTPase-activating protein-binding protein 1, C-terminal RGG region (G3BP1, Homo sapiens, UniProt Q13283)
Sequence of UniProt Q13283 (whole entry, looked up): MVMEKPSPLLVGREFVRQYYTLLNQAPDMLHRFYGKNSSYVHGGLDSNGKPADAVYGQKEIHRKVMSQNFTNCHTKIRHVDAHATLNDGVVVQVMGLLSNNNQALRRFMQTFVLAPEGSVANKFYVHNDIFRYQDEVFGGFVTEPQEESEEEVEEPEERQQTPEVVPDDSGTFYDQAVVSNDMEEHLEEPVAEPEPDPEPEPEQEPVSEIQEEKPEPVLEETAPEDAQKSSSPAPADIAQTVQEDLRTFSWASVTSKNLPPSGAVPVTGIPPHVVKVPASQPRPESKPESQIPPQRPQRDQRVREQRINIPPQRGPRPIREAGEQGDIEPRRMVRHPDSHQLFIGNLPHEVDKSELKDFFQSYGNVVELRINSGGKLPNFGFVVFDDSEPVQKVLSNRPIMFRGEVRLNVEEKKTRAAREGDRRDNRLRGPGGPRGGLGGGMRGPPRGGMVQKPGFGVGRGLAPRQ
Method: RNA Bind-n-Seq
Form: RNA
Sample: in vitro
Concentration: 1 µM
Notes: whole 134-nt RNA, ends assumed
Together with: 150 mM KCl
Relative to: input library
Reading: higher = stronger binding
`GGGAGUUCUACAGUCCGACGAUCUUACAGAUGUAGAGCUAAAACGACUGAAGGAUGCUUUCAAGAGGACCUGUGGACUCUCAUAUUACAUGGGCCAGCACUGCUUCAUCCGGGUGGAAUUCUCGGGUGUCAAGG` gave a log2 enrichment of -0.137.
`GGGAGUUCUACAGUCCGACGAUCCACAGACAACACGCAGCCACACAGACACAGAGGGAAGGGGUUGGGAUGGGGACAGGGUGCACAGCAGGGCGGGGUAGGACCCCAGCCCCUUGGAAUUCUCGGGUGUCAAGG` has a log2 enrichment of -0.457.
`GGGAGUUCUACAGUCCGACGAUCAGUCCUGUGCUACACAUCGUAUGUACCGAAUCAAAUUUAAACCCCCAAACCCCCAAAAAAGUAUUAUGUUACGCCGUUCGGAUCUGCACUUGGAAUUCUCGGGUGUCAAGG` has a log2 enrichment of -0.962.
For `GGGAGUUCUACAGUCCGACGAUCCUGUGCUACACAUCGUAUGUACCGAAUCAAACCCCCCCAAACCCCCCCAAAUUUUUUUAAAAAAGUAUUAUGUUACGCCGUUCGGAUCUGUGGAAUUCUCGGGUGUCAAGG`, the log2 enrichment was -1.03.
For `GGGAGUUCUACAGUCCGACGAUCGCAGGAAGUAAAAACAAAUGGAAAUGCUUCGGAUAGUGGCAGGGGUGGGGGUUGCUAAGGAAAGGGUGGGAUGGGAGUAAAUAAAGAGUUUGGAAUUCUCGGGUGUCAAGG`, the log2 enrichment was 1.76.
`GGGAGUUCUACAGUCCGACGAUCAAGUCCUGUGCUACACAUCGUAUGUACCGAAUCGGCCCCGGGGCCCCGGCCCCGGGGAAAGUAUUAUGUUACGCCGUUCGGAUCUGCACUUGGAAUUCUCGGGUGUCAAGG` gave a log2 enrichment of -2.83.
With `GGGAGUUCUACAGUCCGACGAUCUGGCCCUGGUGGCAUGCGGGGAGGAAGAGGUGGCCUCAUGGAUCGGGGUGGUCCCGGUGGAAUGUUCAGAGGUGGCCGUGGUGGAGACAGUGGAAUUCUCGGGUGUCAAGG` the log2 enrichment was 2.08.
The log2 enrichment of `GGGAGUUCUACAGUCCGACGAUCAAACUUUAGAGGAGGAUCUGAUGGAUAUGGCAGUGGACGUGGAUUUGGGGAUGGCUAUAAUGGGUAUGGAGGAGGACCUGGAGGUGGCAAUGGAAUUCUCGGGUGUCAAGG` is reported as -1.09.

Repeated from above (study 3):
With `COc1cccc2c1C(=O)c1c(O)c3c(c(O)c1C2=O)C[C@@](O)(C(=O)CO)C[C@@H]3O[C@H]1C[C@H](N2CCO[C@H](OC)C2)[C@H](O)[C@H](C)O1` the inhibition was 50.7%.
`Cn1nnc2c(C(N)=O)ncn2c1=O` gave an inhibition of 3.79%.
With `C[C@@H](Nc1cc(F)cc(F)c1)c1cc(C(=O)N(C)C)cc2c(=O)cc(N3CCOCC3)oc12` the inhibition was -0.16%.
`CC(C)(C)NCC(O)c1cc(Cl)c(N)c(C(F)(F)F)c1` (stereo not shown) has an inhibition of 1.92%.
For `CC(=O)c1ccc(S(=O)(=O)NC(=O)NC2CCCCC2)cc1`, the inhibition was -7.43%.
